Measured values from different studies.
Lines come from different studies, so protocols differ. ± gives the spread as reported.
PTPN1: Tyrosine-protein phosphatase non-receptor type 1 (PTPN1, Homo sapiens, UniProt P18031)
F2: Prothrombin (F2, Bos taurus, UniProt P00735)

By UniProt entry, the sequences of proteins in these tests, tags left out. Where a name states a change or a piece, a line headed by the entry shows the natural chain unless it says otherwise. Residues count along the entry.
UniProt P07384, whole entry: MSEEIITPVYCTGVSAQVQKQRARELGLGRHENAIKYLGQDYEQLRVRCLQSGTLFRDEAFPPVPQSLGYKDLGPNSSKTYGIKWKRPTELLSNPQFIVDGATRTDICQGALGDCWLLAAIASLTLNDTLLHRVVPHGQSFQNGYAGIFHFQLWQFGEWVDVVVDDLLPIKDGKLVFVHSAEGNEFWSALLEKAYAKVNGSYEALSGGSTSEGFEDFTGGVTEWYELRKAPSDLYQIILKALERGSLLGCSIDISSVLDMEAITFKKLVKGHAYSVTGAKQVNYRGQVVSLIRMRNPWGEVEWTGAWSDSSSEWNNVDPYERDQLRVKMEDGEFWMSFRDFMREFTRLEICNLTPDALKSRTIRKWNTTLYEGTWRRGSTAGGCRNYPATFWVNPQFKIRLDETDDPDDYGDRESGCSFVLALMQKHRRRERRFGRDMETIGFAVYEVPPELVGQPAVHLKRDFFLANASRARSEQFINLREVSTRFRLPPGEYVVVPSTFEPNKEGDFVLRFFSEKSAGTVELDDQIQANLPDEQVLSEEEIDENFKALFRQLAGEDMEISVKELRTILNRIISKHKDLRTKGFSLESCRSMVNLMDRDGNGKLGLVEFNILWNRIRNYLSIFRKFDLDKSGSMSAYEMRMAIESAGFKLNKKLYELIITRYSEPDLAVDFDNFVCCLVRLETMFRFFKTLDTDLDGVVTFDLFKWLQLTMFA
UniProt Q8NDL9, whole entry, looked up: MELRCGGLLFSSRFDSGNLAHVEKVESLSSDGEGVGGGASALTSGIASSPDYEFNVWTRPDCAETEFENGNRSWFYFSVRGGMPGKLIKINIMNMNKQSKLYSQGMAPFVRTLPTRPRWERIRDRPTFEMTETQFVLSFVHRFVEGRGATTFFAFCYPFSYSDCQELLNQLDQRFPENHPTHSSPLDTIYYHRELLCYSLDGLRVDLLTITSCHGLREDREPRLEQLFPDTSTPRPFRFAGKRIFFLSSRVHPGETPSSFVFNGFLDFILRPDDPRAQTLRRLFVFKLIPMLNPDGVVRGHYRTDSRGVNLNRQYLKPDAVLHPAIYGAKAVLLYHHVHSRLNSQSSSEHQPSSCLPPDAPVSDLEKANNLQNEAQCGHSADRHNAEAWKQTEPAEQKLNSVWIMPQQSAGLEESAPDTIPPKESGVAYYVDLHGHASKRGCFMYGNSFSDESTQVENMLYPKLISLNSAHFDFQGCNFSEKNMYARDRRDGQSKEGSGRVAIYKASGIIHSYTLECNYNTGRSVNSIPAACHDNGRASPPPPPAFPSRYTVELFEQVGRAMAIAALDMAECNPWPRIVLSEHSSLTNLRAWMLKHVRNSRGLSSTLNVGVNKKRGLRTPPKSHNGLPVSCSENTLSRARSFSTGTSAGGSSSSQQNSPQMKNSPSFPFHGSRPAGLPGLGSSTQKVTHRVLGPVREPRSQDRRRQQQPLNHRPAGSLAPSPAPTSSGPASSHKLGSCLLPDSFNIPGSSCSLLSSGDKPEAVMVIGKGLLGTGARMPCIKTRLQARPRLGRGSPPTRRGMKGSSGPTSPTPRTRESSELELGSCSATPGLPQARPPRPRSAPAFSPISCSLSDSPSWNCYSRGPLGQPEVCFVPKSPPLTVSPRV
UniProt P35241, whole entry: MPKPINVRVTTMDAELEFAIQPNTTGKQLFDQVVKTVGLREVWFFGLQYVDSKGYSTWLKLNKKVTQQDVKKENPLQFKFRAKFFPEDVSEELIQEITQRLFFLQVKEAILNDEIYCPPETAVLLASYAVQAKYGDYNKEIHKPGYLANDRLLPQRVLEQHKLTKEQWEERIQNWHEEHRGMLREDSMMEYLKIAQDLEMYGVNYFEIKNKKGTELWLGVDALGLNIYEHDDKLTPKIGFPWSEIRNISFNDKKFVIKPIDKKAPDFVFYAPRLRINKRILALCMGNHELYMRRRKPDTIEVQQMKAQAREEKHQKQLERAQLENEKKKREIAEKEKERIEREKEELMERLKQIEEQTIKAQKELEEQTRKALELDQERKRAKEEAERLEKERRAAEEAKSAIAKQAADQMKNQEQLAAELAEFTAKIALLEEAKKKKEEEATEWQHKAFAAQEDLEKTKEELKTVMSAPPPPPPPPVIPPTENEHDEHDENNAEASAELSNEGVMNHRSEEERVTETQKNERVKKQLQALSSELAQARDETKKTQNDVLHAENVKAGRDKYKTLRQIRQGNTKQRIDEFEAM
UniProt Q07912, whole entry: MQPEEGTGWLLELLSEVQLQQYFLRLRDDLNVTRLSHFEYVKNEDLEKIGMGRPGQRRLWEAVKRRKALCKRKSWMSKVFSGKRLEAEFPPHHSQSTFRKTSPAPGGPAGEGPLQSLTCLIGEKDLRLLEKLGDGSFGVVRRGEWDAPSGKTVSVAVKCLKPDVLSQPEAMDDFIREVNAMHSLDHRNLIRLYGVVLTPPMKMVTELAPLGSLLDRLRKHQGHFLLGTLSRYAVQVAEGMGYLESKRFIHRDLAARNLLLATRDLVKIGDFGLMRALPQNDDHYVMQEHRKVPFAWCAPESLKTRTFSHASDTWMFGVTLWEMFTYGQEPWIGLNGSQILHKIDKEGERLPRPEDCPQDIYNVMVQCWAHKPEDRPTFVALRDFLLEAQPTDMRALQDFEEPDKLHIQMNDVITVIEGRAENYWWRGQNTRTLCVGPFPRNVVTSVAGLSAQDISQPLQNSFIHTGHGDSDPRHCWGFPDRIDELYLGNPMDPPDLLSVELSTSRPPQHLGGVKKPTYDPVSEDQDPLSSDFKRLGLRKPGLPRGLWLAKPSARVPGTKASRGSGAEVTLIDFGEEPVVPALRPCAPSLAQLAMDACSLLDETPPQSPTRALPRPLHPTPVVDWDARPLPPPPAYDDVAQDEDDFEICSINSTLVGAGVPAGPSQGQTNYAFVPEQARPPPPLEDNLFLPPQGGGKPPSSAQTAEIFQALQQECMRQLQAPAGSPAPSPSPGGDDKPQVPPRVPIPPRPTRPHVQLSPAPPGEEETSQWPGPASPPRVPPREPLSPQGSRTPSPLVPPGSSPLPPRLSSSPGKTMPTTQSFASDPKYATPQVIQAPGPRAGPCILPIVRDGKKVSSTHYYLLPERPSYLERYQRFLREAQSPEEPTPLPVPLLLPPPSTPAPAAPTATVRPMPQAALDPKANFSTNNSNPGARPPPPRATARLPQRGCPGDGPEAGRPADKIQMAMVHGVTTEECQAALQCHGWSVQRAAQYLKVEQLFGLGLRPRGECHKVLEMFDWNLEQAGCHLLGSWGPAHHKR
UniProt P16083, whole entry: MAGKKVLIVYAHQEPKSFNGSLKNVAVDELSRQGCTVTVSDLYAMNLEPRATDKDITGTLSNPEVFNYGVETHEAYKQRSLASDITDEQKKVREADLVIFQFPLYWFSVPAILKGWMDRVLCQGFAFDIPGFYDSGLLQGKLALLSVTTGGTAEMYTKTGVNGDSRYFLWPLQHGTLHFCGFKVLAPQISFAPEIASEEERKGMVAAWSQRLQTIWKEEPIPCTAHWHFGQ
UniProt P51452, whole entry: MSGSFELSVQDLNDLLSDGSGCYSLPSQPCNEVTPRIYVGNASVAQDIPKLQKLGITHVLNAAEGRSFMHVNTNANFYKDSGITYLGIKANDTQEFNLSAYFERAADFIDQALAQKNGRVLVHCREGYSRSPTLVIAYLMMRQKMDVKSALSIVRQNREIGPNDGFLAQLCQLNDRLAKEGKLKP
UniProt Q13882, whole entry: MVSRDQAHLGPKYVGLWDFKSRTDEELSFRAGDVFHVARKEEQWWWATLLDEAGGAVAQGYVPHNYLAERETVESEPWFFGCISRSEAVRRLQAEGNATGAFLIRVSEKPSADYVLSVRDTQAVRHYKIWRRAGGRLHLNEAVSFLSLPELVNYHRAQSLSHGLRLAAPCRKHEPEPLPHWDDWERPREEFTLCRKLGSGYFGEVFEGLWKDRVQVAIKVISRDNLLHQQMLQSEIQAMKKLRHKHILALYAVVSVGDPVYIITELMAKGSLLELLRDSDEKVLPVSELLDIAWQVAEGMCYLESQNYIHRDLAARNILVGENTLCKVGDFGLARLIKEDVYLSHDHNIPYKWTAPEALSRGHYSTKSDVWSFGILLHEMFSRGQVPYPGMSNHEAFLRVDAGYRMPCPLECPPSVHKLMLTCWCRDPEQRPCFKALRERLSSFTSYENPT
UniProt Q9NWZ3, whole entry: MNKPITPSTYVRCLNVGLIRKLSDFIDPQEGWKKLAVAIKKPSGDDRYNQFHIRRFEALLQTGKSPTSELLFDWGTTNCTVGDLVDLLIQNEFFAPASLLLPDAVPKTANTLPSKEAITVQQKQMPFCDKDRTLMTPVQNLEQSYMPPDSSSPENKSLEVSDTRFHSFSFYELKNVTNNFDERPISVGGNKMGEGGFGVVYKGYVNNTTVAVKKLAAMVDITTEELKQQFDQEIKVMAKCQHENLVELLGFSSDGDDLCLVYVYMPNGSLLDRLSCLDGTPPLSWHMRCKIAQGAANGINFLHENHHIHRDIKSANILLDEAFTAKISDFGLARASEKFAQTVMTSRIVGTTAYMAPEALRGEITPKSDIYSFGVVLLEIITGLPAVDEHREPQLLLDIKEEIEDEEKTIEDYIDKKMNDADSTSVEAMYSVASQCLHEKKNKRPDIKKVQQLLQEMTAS
UniProt O75116, whole entry: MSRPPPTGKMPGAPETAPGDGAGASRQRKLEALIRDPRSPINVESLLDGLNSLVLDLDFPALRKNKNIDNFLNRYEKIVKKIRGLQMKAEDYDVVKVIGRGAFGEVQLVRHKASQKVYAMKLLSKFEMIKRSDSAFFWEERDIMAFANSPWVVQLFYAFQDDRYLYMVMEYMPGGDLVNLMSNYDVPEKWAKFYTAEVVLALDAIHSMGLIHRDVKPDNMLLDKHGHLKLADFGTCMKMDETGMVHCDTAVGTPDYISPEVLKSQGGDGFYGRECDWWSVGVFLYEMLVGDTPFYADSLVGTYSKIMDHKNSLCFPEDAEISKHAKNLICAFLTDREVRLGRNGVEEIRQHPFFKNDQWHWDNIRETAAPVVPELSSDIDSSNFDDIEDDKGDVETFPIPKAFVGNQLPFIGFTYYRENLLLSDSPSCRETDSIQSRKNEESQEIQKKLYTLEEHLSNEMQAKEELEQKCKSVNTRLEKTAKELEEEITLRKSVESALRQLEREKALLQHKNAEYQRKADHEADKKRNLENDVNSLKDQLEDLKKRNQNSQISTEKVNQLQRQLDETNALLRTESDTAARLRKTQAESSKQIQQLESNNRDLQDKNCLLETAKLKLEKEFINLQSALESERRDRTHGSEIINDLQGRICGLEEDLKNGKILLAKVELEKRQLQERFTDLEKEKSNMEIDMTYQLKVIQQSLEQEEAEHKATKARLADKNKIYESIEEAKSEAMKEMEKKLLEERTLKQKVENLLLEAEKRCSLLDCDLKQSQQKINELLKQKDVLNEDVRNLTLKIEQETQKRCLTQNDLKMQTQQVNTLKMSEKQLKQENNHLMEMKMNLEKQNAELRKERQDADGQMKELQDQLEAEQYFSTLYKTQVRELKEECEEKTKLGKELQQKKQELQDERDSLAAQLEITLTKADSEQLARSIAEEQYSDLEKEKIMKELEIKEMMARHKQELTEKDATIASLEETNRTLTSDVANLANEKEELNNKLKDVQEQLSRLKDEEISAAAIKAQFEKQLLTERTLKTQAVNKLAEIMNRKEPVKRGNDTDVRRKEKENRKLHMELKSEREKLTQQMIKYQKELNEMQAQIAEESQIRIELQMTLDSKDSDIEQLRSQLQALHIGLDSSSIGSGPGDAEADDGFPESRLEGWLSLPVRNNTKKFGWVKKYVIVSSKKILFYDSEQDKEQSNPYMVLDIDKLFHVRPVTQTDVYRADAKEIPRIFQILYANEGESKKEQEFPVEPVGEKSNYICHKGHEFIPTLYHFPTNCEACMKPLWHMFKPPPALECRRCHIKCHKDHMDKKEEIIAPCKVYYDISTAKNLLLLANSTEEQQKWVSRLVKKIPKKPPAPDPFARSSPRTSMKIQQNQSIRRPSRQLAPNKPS
UniProt Q15256, 22-657 limits assumed: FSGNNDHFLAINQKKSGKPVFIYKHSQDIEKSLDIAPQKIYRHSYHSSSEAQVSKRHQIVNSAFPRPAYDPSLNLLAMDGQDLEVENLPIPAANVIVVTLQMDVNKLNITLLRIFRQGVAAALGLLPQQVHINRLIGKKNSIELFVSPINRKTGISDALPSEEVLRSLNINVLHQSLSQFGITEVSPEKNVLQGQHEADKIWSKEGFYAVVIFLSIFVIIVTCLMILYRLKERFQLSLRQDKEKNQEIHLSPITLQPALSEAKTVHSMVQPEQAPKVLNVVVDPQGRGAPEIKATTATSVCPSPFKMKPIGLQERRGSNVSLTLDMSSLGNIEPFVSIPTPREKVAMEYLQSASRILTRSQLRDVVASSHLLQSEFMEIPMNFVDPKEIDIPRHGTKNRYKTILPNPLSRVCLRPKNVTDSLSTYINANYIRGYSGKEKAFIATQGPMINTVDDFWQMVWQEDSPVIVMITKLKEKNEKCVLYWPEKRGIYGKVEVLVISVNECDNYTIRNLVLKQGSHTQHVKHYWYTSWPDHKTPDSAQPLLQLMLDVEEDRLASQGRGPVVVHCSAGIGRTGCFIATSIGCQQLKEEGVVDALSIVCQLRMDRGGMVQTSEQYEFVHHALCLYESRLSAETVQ

CCCCCC/C=C\CC(=O)N[C@@H](Cc1ccc(O)cc1)[C@@H](O)CC(=O)N[C@H](C(=O)N[C@@H]1C=CC(=O)N[C@@H](C(C)C)C(=O)N(C)[C@@H](Cc2ccc(O)cc2)C(=O)OC1)C(C)C — IC50 (Calpain-1 catalytic subunit (CAPN1, Homo sapiens, UniProt P07384); enzyme activity, inhibitor, fluorescence; 1 h, 37 °C): 34.7 ± 2.5 nM
CCNC(=O)[C@H](CCP(=O)(O)C[C@@H](CCC(=O)O)C(=O)O)NC(C)=O — IC50 (Cytosolic carboxypeptidase-like protein 5, residues 2–605 (AGBL5, Homo sapiens, UniProt Q8NDL9); enzyme activity, inhibitor, LC-MS; 15 min preincubation, pH 7.4, room temperature, together with: 10 µM peptide substrate): 15600 nM
O=C(Oc1c(F)c(F)c(F)c(F)c1F)C(c1ccccc1)c1ccccc1 — IC50 (ATP-dependent 6-phosphofructokinase, platelet type (PFKP, Homo sapiens, UniProt Q01813); probe labelling, inhibitor, gel-based ABPP): 2000 nM
O=c1/c(=C/c2ccc(-c3cc(Cl)cc(Cl)c3)o2)sc2nc3cc(Br)cnc3n12 — IC50 (PTPN1; phosphatase activity, inhibitor; together with: OMFP): > 100000 nM
O=C1C=C(NCCc2cc(Br)c(O)c(Br)c2)C(=O)c2ncccc21 — IC50 (Radixin (Homo sapiens, UniProt P35241); phosphorylation, inhibitor, in vitro kinase): 35300 nM
Cc1sc2c(c1C)C(c1ccc(Cl)cc1)=N[C@@H](CC(=O)OC(C)(C)C)c1nnc(C)n1-2 — IC50 (Leucine-rich repeat serine/threonine-protein kinase 2 (LRRK2, Homo sapiens, UniProt Q5S007); kinase activity, Adapta): > 10000 nM
O=C(/C=C/c1nc2ccccc2[nH]1)c1c(-c2ccccc2)c2cc(Cl)ccc2[nH]c1=O — IC50 (Aurora kinase B (AURKB, Homo sapiens, UniProt Q96GD4); kinase activity, inhibitor, SelectScreen profiling): 1730 nM
CN(C)S(=O)(=O)c1cccc(-n2sc3ccccc3c2=O)c1 — IC50 (Phosphoethanolamine/phosphocholine phosphatase (Homo sapiens, UniProt Q8TCT1); enzyme activity, inhibitor, phosphate release; 60 min, pH 6.7, together with: phosphocholine 62.5 µM): 240 ± 60 nM
COc1cc(N2CCN(C)CC2)ccc1Nc1ncc2c(n1)N(C)c1ccccc1C(=O)N2C(C)C — IC50 (Activated CDC42 kinase 1 (TNK2, Homo sapiens, UniProt Q07912); binding, inhibitor, LanthaScreen binding): 8800 nM
Cc1cc(C)c2nc3s/c(=C\c4ccc(-c5ccccc5C(=O)O)o4)c(=O)n3c2c1 — IC50 (PTPN1; phosphatase activity, inhibitor; together with: OMFP): 28000 nM
c1ccc2[nH]c3c(N=NC4=NCCN4)c4ccccc4c-3nc2c1 — IC50 (Ribosyldihydronicotinamide dehydrogenase [quinone] (NQO2, Homo sapiens, UniProt P16083); enzyme activity, inhibitor; together with: 200 µM NRH, DCPIP, 2 µM BSA): 180 ± 50 nM
O=C(Nc1ccc(Cl)cc1)C(NS(=O)(=O)c1cccs1)c1ccccc1 (single isomer, unassigned) — IC50 (Uracil nucleotide/cysteinyl leukotriene receptor, long isoform (GPR17, Homo sapiens, UniProt Q13304); calcium mobilization, antagonist; 1321-N1): 4360 ± 360 nM
CC(C)(O)Cc1ccc2c(c1)c1cc(OCCC3CC3)ccc1c1nc(-c3c(C#N)cc(F)cc3C#N)[nH]c21 — IC50 (Prostaglandin E synthase (PTGES, Homo sapiens, UniProt O14684); PGE2 production, inhibitor, LC-MS/MS; KB; together with: IL-1β): 63 nM
CCCCCCCCCCCCCC=C[C@@H](O)[C@H](CO[C@@H]1O[C@H](CO)[C@@H](O[C@@H]2O[C@H](CO)[C@H](O)[C@H](O[C@]3(C(=O)O)C[C@H](O)[C@@H](NC(C)=O)[C@H]([C@H](O)[C@@H](CO)O[C@]4(C(=O)O)C[C@H](O)[C@@H](NC(C)=O)[C@H]([C@H](O)[C@H](O)CO)O4)O3)[C@H]2O)[C@H](O)[C@H]1O)NC(=O)CCCCCCCCCCCCCCCCC — IC50 (CD1D (Homo sapiens, UniProt P15813); binding): 84 nM
O=C(O)c1ccc(/C=C2\SC(=S)N(c3cccc(C(F)(F)F)c3)C2=O)cc1 — IC50 (Cystic fibrosis transmembrane conductance regulator (CFTR, Homo sapiens, UniProt P13569); iodide influx, inhibitor, YFP fluorescence plate reader; FRT cells expressing CFTR; together with: forskolin): 1000 ± 200 nM
O=c1/c(=C/c2ccc(-c3ccccc3[N+](=O)[O-])o2)sc2nc3cc(Br)cnc3n12 — IC50 (Dual specificity protein phosphatase 3 (DUSP3, Homo sapiens, UniProt P51452); phosphatase activity, inhibitor; together with: OMFP): 12000 nM
CCN1CCN(Cc2ccc(NC(=O)c3ccc(C)c(Oc4ncnc5cc(OC)c(OC)cc45)c3)cc2C(F)(F)F)CC1 — IC50 (Tyrosine-protein kinase Fes/Fps (FES, Homo sapiens, UniProt P07332); enzyme activity, Z'-LYTE; together with: ATP at Km): 290 nM
Cc1cccc(C2Nc3cccc4cccc(c34)N2)c1 — IC50 (F2; enzyme activity; 30 min preincubation, together with: pyroGlu-Pro-Arg-pNA): > 20000 nM
COc1cc(N2CCN(C)CC2)ccc1Nc1ncc2c(n1)N(C)c1ccccc1C(=O)N2 — IC50 (Protein-tyrosine kinase 6 (PTK6, Homo sapiens, UniProt Q13882); kinase activity, inhibitor; off-target): 47 nM
CN1C(=O)c2ccccc2N(C)c2nc(Nc3ccc(N4CCC(O)CC4)cc3)ncc21 — IC50 (Serine/threonine-protein kinase DCLK2 (DCLK2, Homo sapiens, UniProt Q8N568); kinase activity): < 100 nM
COc1cccc(CNC(=O)Nc2ccc(-c3ncnc4[nH]ccc34)cc2)c1 — IC50 (LIM domain kinase 1 (LIMK1, Homo sapiens, UniProt P53667); enzyme activity, inhibitor; together with: 1 µM cofilin, 10 µM ATP): 642 nM
O=C(Nc1cccnn1)N1CC(Oc2ccc(-c3ccccc3F)cn2)C1 — IC50 (Fatty-acid amide hydrolase 1 (FAAH, Homo sapiens, UniProt O00519); enzyme activity, inhibitor): ~60 nM
COc1cc2ncc(-c3cccc(NC4CCNC4)n3)n2cc1-c1cn[nH]c1 (centres unmarked) — IC50 (Interleukin-1 receptor-associated kinase 4 (IRAK4, Homo sapiens, UniProt Q9NWZ3); kinase activity, inhibitor): < 0.5 nM
COc1cccc(CNC(=O)Nc2ccc(-c3cn[nH]c3)cc2)c1 — IC50 (Rho-associated protein kinase 2 (ROCK2, Homo sapiens, UniProt O75116); enzyme activity, inhibitor): 2 nM
O=C(CC[C@H](Cc1ccc(C(=O)O)cc1)C(=O)O)NO — IC50 (Glutamate carboxypeptidase 2, extracellular domain (FOLH1, Homo sapiens, UniProt Q04609); probe binding, inhibitor, fluorescence polarization competition; 25 min preincubation, 40 nM enzyme, together with: fluorescent urea probe 20 nM): 19.2 nM
Cc1ccc(OCc2nnc(NC(=O)Nc3cccc(Cl)c3)s2)cc1C — IC50 (F2; enzyme activity; 30 min preincubation, together with: pyroGlu-Pro-Arg-pNA): > 20000 nM
COc1cc(-c2nc3ccc(C(=O)NCCCN4CCN(C)C(c5ccccc5)C4)cc3n2C2CCC2)cc(OC)c1OC (centres unmarked) — IC50 (Activin receptor type-1 (ACVR1, Homo sapiens, UniProt Q04771); target engagement, NanoBRET; HEK293): 2720 nM
O=C(Nc1ccc(Cl)c(Cl)c1)Nc1nnc(-c2ccc(Br)cc2)s1 — IC50 (F2; enzyme activity; 30 min preincubation, together with: pyroGlu-Pro-Arg-pNA): > 20000 nM
CC(C)C[C@@H](NC(=O)[C@H](O)Cc1ccccc1)C(=O)N1[C@H](C(=O)NCCC2=CCN(C(=N)N)C2)C[C@@H]2CC[C@@H](O[C@H]3OC[C@@H](O)[C@H](O)[C@H]3O)C[C@@H]21 — IC50 (Trypsin (Sus scrofa, UniProt P00761); enzyme activity, inhibitor): 67 µg/mL
CN1C/C(=C\c2ccccn2)C(=O)[C@@H](Cc2ccccn2)C1 — IC50 (Dual specificity mitogen-activated protein kinase kinase 1 (MAP2K1, Homo sapiens, UniProt Q02750); kinase cascade activity, inhibitor, Z'-LYTE; together with: ERK2): > 100000 nM
FC(F)(F)Oc1ccc2nc(-c3ccccn3)[nH]c2c1 — IC50 (Core-binding factor subunit beta, with RUNX1 Runt domain (Homo sapiens, UniProt Q13951); CBFβ-Runt domain binding, inhibitor, FRET): 3200 ± 500 nM
O=c1oc(-c2cccc(F)c2)nc2ccc(Cc3ccc4nc(-c5cccc(F)c5)oc(=O)c4c3)cc12 — IC50 (F2; enzyme activity; 30 min preincubation, together with: pyroGlu-Pro-Arg-pNA): > 20000 nM
O=c1/c(=C/c2ccccc2Cl)sc2nc3cc(Br)cnc3n12 — IC50 (Receptor-type tyrosine-protein phosphatase R (PTPRR, Homo sapiens, UniProt Q15256); phosphatase activity, inhibitor; together with: OMFP): > 100000 nM
O=[N+]([O-])c1ccc(C2Nc3c(cccc3C(F)(F)F)C3C=CCC32)cc1 (centres unmarked) — IC50 (F2; enzyme activity; 30 min preincubation, together with: pyroGlu-Pro-Arg-pNA): > 20000 nM
COc1ccc(-c2nc([C@H](C)Sc3nc(N)cc(N)n3)c(C)s2)cc1OCCN1CCOCC1 — IC50 (Deoxycytidine kinase (DCK, Homo sapiens, UniProt P27707); deoxycytidine uptake, inhibitor, [3H]-deoxycytidine uptake; CEM; 1 h, 37 °C): 468 ± 2.1 nM

For quick reference, copied from above:
CN1C/C(=C\c2ccccn2)C(=O)[C@@H](Cc2ccccn2)C1 — IC50 (Dual specificity mitogen-activated protein kinase kinase 1 (MAP2K1, Homo sapiens, UniProt Q02750); kinase cascade activity, inhibitor, Z'-LYTE; together with: ERK2): > 100000 nM
FC(F)(F)Oc1ccc2nc(-c3ccccn3)[nH]c2c1 — IC50 (Core-binding factor subunit beta, with RUNX1 Runt domain (Homo sapiens, UniProt Q13951); CBFβ-Runt domain binding, inhibitor, FRET): 3200 ± 500 nM
O=c1oc(-c2cccc(F)c2)nc2ccc(Cc3ccc4nc(-c5cccc(F)c5)oc(=O)c4c3)cc12 — IC50 (F2; enzyme activity; 30 min preincubation, together with: pyroGlu-Pro-Arg-pNA): > 20000 nM
O=c1/c(=C/c2ccccc2Cl)sc2nc3cc(Br)cnc3n12 — IC50 (Receptor-type tyrosine-protein phosphatase R (PTPRR, Homo sapiens, UniProt Q15256); phosphatase activity, inhibitor; together with: OMFP): > 100000 nM
